Experimental data collected from several papers.
Each numbered part is a random draw from the data of one study; scales do not carry over between parts.
Sequence of UniProt P10721 (whole entry, unmodified, looked up): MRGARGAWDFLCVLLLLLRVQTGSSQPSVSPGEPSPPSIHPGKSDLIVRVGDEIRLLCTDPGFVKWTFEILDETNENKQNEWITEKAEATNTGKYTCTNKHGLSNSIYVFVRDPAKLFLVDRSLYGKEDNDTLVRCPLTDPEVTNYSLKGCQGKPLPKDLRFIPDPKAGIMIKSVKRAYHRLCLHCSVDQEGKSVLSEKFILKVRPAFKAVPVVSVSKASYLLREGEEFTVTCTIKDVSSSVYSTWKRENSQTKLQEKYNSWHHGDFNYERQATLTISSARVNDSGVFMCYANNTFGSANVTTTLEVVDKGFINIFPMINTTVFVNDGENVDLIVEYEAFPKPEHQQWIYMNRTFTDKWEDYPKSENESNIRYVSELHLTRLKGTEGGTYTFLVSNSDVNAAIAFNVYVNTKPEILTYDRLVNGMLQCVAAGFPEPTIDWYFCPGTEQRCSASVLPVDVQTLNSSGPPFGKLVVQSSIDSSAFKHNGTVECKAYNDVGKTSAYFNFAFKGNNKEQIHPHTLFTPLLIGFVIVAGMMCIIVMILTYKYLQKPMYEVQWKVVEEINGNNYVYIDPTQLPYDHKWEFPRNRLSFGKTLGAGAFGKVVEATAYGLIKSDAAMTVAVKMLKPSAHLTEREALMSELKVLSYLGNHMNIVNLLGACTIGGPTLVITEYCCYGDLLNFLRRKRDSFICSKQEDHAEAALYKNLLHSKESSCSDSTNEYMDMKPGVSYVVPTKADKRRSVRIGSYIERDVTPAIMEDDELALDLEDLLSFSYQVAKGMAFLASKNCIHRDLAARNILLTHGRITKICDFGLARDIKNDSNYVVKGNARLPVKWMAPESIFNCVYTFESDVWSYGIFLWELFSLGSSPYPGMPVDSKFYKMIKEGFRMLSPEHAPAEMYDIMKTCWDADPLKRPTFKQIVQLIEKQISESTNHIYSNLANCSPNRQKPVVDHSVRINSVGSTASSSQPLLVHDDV
Sequence of UniProt P54756 (whole entry, looked up): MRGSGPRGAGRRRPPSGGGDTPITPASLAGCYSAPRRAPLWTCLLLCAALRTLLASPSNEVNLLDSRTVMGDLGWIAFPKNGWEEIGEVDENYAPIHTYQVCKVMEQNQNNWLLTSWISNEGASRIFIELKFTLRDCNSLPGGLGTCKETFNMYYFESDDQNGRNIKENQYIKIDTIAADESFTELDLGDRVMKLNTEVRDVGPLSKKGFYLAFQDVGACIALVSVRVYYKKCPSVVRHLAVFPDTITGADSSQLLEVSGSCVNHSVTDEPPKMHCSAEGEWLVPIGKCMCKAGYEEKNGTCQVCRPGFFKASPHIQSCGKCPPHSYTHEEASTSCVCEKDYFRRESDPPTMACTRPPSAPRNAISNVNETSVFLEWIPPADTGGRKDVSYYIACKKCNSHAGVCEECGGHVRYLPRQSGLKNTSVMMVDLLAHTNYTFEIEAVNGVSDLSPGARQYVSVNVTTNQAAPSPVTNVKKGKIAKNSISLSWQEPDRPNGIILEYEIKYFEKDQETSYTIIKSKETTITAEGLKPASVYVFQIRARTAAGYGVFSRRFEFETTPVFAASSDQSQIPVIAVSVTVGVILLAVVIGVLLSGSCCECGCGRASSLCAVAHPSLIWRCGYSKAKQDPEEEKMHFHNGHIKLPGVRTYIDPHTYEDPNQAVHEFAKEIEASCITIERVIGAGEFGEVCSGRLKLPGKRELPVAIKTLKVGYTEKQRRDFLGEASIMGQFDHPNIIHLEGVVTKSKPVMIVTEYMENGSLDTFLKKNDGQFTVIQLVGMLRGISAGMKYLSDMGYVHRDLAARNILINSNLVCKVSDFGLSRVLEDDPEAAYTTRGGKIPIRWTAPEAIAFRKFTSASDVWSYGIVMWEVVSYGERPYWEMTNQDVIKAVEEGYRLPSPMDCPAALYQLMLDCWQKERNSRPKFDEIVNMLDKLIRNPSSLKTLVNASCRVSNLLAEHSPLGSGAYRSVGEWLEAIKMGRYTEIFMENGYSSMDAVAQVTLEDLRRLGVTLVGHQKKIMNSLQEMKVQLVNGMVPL
Sequence of UniProt Q05655 (whole entry, looked up): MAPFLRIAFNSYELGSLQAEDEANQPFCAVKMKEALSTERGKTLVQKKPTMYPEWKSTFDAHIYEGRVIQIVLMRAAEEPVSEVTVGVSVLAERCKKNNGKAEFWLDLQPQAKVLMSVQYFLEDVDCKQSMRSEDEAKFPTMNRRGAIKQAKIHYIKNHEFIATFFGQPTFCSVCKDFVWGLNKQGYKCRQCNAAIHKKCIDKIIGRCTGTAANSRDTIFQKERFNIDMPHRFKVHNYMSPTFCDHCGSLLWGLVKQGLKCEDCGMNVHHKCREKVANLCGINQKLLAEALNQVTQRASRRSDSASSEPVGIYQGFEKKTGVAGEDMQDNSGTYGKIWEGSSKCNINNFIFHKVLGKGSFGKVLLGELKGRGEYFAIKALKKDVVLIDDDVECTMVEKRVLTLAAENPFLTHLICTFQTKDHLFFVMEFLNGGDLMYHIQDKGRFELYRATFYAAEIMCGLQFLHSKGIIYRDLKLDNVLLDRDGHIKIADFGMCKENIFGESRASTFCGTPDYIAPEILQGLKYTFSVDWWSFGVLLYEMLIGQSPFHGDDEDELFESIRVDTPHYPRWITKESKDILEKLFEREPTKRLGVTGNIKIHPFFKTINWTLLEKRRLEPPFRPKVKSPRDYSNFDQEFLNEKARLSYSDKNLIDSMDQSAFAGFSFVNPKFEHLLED
Sequence of UniProt Q13976 (whole entry, looked up): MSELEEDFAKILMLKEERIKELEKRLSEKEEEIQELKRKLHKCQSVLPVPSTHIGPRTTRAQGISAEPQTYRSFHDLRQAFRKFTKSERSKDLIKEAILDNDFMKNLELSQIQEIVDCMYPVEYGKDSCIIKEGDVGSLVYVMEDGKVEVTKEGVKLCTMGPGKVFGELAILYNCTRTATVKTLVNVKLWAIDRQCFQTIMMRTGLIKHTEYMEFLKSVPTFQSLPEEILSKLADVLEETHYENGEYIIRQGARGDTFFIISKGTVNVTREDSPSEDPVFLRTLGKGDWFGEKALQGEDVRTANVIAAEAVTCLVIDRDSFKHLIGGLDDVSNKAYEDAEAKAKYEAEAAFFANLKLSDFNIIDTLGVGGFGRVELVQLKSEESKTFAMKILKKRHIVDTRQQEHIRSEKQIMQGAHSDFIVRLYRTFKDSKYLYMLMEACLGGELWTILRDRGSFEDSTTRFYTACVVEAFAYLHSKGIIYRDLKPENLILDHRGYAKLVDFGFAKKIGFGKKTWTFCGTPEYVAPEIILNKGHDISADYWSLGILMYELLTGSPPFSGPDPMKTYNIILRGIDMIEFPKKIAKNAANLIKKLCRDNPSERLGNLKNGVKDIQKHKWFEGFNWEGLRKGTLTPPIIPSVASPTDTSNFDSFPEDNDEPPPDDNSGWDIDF
Sequence of UniProt P51813 (whole entry, looked up): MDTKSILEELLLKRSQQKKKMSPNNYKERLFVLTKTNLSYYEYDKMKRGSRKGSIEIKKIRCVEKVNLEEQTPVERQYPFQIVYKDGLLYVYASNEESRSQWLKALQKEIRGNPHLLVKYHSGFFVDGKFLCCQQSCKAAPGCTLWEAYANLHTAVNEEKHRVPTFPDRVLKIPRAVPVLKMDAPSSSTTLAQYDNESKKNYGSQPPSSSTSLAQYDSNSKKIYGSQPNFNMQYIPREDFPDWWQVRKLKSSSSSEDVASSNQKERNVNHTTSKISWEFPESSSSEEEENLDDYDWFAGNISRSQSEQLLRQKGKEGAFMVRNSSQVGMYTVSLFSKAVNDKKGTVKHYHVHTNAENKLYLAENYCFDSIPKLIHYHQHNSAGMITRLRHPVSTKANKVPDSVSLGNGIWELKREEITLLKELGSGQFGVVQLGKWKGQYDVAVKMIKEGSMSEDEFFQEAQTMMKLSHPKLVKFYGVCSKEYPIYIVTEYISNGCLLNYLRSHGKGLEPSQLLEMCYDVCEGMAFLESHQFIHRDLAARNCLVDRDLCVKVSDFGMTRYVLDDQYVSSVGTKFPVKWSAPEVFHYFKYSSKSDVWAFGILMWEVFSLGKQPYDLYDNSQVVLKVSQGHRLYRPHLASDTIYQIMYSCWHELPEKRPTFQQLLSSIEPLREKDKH
Sequence of UniProt Q9Y243 (whole entry, looked up): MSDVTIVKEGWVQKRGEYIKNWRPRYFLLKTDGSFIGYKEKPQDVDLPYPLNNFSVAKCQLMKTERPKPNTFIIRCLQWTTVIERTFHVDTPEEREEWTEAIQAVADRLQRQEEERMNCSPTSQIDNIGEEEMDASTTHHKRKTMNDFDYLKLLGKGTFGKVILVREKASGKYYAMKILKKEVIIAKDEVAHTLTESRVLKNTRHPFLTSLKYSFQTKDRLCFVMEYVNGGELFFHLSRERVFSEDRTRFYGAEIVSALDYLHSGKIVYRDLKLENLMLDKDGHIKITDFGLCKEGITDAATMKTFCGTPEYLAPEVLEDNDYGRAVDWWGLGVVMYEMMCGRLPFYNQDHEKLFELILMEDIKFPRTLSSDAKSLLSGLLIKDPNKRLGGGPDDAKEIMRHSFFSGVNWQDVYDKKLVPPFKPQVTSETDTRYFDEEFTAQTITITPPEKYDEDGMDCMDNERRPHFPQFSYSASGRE
Sequence of UniProt O14733 (whole entry, looked up): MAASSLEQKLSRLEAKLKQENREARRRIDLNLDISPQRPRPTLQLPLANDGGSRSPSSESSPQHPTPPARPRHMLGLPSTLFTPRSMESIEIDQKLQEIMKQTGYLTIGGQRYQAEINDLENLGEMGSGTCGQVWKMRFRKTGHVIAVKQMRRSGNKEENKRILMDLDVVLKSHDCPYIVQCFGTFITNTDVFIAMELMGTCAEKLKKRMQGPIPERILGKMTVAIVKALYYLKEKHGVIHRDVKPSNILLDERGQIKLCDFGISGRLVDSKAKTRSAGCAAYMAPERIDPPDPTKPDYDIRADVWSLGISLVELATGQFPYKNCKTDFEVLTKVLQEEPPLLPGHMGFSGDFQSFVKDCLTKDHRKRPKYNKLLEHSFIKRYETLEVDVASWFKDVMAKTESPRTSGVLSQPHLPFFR

Set 1
Target: Bromodomain-containing protein 4, BD1 (BRD4, Homo sapiens, UniProt O60885)
Read-out: acetyl-histone H4 peptide binding
Method: AlphaScreen displacement
Concentration: 50 µM
The inhibition of `Clc1ccc(Nc2nccn3c(-c4ccsc4)cnc23)cc1` is reported as 42.3%.
`Cc1ccnc(Nc2nc(-c3sc(N)nc3C)cs2)c1` has an inhibition of 88.8%.
`CCN(CCN(C)C)Cc1c(-c2ccc(F)cc2)[nH]c2ncccc12` gave an inhibition of 6.95%.
`CC(Nc1nccnc1-c1ccccc1Cl)c1ccccc1` (stereo not shown) has an inhibition of 20.9%.
With `CC(=O)NNC(=O)c1c(O)c2ccccc2[nH]c1=O` the inhibition was 35.9%.
`O=C(Nc1cccc(Nc2nccc(Nc3cccc(C(F)(F)F)c3)n2)c1)C1CC1` gave an inhibition of 38.4%.
The inhibition of `O=c1ccc2ccc(O)c(O)c2o1` is reported as 25.9%.
`CC(CCl)=C(C#N)c1nc2ccccc2s1` gave an inhibition of 21.6%.
With `O=C(CSc1ccc2nnc(-c3cccc(F)c3)n2n1)Nc1nccs1` the inhibition was 7.5%.
The inhibition of `CC(C)Oc1cc(Nc2nc(N[C@@H](C)c3ccc(F)cn3)ncc2Cl)[nH]n1` is reported as 15.5%.
With `OC1CCN(Cc2c(-c3ccco3)[nH]c3ncccc23)CC1` the inhibition was 4.3%.
The inhibition of `C[S+]([O-])c1ccc(CSc2nc(-c3ccc(F)cc3)c(-c3ccncc3)[nH]2)cc1` (stereo not shown) is reported as 14.2%.
For `Cc1sc2nc[nH]c(=O)c2c1-c1ccc(Cl)cc1`, the inhibition was 14.9%.
`COC(=O)CCNc1ccc(O)c2c1C(=O)c1ccccc1C2=O` has an inhibition of 86.3%.
For `CCOC(=O)CSc1ccc2nnc(-c3ccc(OC)c(OC)c3)n2n1`, the inhibition was 28.6%.
`CCOC(=O)C(C)Sc1ccc2nnc(-c3ccc(OC)c(OC)c3)n2n1` (stereo not shown) has an inhibition of 27.3%.
`COc1ccc(NC(=S)Nc2ccc3nc[nH]c(=O)c3c2)cc1` gave an inhibition of 12.4%.
`COc1cccc(NC(=O)CSc2ccc3nnc(-c4ccc(Cl)cc4)n3n2)c1` gave an inhibition of 10%.
With `Nc1ccccc1NC(=O)CSc1nc2ccccc2s1` the inhibition was 17.9%.
`Nc1nc(Nc2cccc(Cl)c2)c2nc[nH]c2n1` has an inhibition of 43%.
`O=c1c(-c2ccc(O)cc2)coc2cc(O)cc(O)c12.O=c1c(-c2ccc(O)cc2)coc2cc(O)cc(O)c12` has an inhibition of 21.1%.

Set 2
Host: human
Sample: microsomes or S9
Concentration: 2 µM
Time: 0.5 h
The remaining compound of `Cc1ccccc1-c1nc2ccccc2cc1Cn1nc(-c2cncnc2)c2cnc(N)nc21` is reported as over 99%.
For `CC(c1ccc([S+](C)[O-])cc1)N(C)C(=O)C1CCC(c2ccccc2)CC1` (stereo not shown), the remaining compound was 54.6%.
`O=C(Cn1c(COc2ccc(Br)cc2Cl)noc1=O)Nc1cccc(Br)c1` has a remaining compound of 69.5%.
With `CC(C)(C)CCNc1ccc(CNS(C)(=O)=O)cc1` the remaining compound was 37.3%.
For `O=C(C1CCCN1S(=O)(=O)c1ccc(-c2ccc(=O)[nH]n2)s1)N1CCc2ccccc21` (stereo not shown), the remaining compound was 21%.
The remaining compound of `Cc1ccccc1NCc1cc(=O)n2nc(-c3ccccc3C)nc2[nH]1` is reported as 4.39%.
For `CC1(C)Cc2c(sc3[nH]c(=O)n(C4CCCCC4)c(=O)c23)CO1`, the remaining compound was 17.1%.
The remaining compound of `Cc1oc(=O)n(Cc2cc(C(N)=O)oc2C(C)(C)C)c1C` is reported as 86.7%.
For `CCc1ncnc(Nc2cnn(Cc3nnc4n3CCCC4)c2)c1F`, the remaining compound was 94.3%.
The remaining compound of `CCC(CNC(=O)CCOCC(C)C)NC(=O)CCOCC(C)C` (stereo not shown) is reported as 24.2%.
`CCC1(N2CCN(C(=O)c3sccc3C)CC2)CCN(S(C)(=O)=O)C1` (stereo not shown) gave a remaining compound of 57.8%.
`COC(=O)c1sccc1N1C(=O)C/C(=C/c2c[nH]c3ncccc23)C1=O` has a remaining compound of 37.1%.
For `CC(=O)c1c(NCc2ccc(Cl)cc2)n(C)c2ccccc2c1=O`, the remaining compound was 3.73%.
With `CCC(CC)C(=O)Nc1c2c(nc3c1CCC3)CCCC2` the remaining compound was 20.1%.
`COc1ccc(OC)c(NC(=O)C2Cn3cccc3C(=O)N2C)c1` (stereo not shown) gave a remaining compound of 54.6%.
For `c1cc(-c2ncnc3sccc23)c2cc[nH]c2n1`, the remaining compound was 34%.
`CCC(C)NC(=O)c1ccc2c(=O)n(C(C)C)c3nn(CC(=O)Nc4ccc(C(C)C)cc4)c(=O)n3c2c1` (stereo not shown) gave a remaining compound of 61.3%.
For `COc1cc(NC(=O)N2CCC(Cn3cncn3)CC2)ncn1`, the remaining compound was over 100%.
With `Cc1cc(C)n(CCCN(C)Cc2cn(C(C)C)c3cc(F)ccc23)n1` the remaining compound was 4.7%.

Set 3
SMILES: O=C1NC(=O)c2c1c1c3ccccc3[nH]c1n1cncc21
Read-out: enzyme activity
Action: inhibitor
Concentration: 0.5 µM
Relative to: control
It gave 51.8% for remaining activity (Mitogen-activated protein kinase kinase kinase kinase 2 (MAP4K2, Homo sapiens, UniProt Q12851)).
It gave 35% for remaining activity (MAP kinase-interacting serine/threonine-protein kinase 2 (MKNK2, Homo sapiens, UniProt Q9HBH9)).
For Mitogen-activated protein kinase kinase kinase 10 (MAP3K10, Homo sapiens, UniProt Q02779): remaining activity read 82.5%.
For Leucine-rich repeat serine/threonine-protein kinase 2 (LRRK2, Homo sapiens, UniProt Q5S007): remaining activity read 61.3%.
It gave 86.6% for remaining activity (Serine/threonine-protein kinase WNK2 (WNK2, Homo sapiens, UniProt Q9Y3S1)).
For Mast/stem cell growth factor receptor Kit (KIT, Homo sapiens, UniProt P10721): remaining activity read 38%.
Serine/threonine-protein kinase Nek4 (NEK4, Homo sapiens, UniProt P51957) — remaining activity: 88.4%.
Protein kinase C iota type (PRKCI, Homo sapiens, UniProt P41743) — remaining activity: 82.3%.
Cyclin-dependent kinase 9, with cyclin T1 (CDK9, Homo sapiens, UniProt P50750) — remaining activity: 82.9%.
It gave 65% for remaining activity (Protein kinase C delta type (PRKCD, Homo sapiens, UniProt Q05655)).
Casein kinase II subunit alpha (CSNK2A1, Homo sapiens, UniProt P68400) — remaining activity: 52.6%.
For RAC-gamma serine/threonine-protein kinase (AKT3, Homo sapiens, UniProt Q9Y243): remaining activity read 94.3%.
It gave 85.9% for remaining activity (Mitogen-activated protein kinase 12 (MAPK12, Homo sapiens, UniProt P53778)).
The remaining activity was 63.8% (Serine/threonine-protein kinase PLK2 (PLK2, Homo sapiens, UniProt Q9NYY3)).
Interleukin-1 receptor-associated kinase 4 (IRAK4, Homo sapiens, UniProt Q9NWZ3) — remaining activity: 84.8%.
It gave 65.7% for remaining activity (Dual specificity mitogen-activated protein kinase kinase 6 (MAP2K6, Homo sapiens, UniProt P52564)).
It gave 83.9% for remaining activity (Tyrosine-protein kinase BTK (BTK, Homo sapiens, UniProt Q06187)).
For Casein kinase I isoform alpha (CSNK1A1, Homo sapiens, UniProt P48729): remaining activity read 51.6%.
For Serine/threonine-protein kinase Chk1 (CHEK1, Homo sapiens, UniProt O14757): remaining activity read 24.6%.
The remaining activity was 93.8% (cGMP-dependent protein kinase 1 (PRKG1, Homo sapiens, UniProt Q13976)).
It gave 107% for remaining activity (Mitogen-activated protein kinase 13 (MAPK13, Homo sapiens, UniProt O15264)).
The remaining activity was 94.8% (Tyrosine-protein kinase Lyn (LYN, Homo sapiens, UniProt P07948)).
It gave 92% for remaining activity (Ephrin type-A receptor 5 (EPHA5, Homo sapiens, UniProt P54756)).

Set 4
SMILES: Nc1cnc(N2CCc3cc(S(=O)(=O)Nc4c(F)cc(Cl)cc4F)cc(N4CCCC4=O)c32)nc1
Read-out: cell-free assay
Method: competition with immobilised ligand
Concentration: 1 µM
Non-receptor tyrosine-protein kinase TNK1 (TNK1, Homo sapiens, UniProt Q13470) — remaining binding: 100%.
Tyrosine-protein kinase ABL1, non-phosphorylated (ABL1, Homo sapiens, UniProt P00519) — remaining binding: 100%.
Tyrosine-protein kinase Srms (SRMS, Homo sapiens, UniProt Q9H3Y6) — remaining binding: 88%.
The remaining binding was 100% (Mitogen-activated protein kinase kinase kinase 11 (MAP3K11, Homo sapiens, UniProt Q16584)).
Ribosomal protein S6 kinase alpha-2, C-terminal kinase domain (RPS6KA2, Homo sapiens, UniProt Q15349) — remaining binding: 100%.
Dual specificity tyrosine-phosphorylation-regulated kinase 1A (DYRK1A, Homo sapiens, UniProt Q13627) — remaining binding: 80%.
For Cytoplasmic tyrosine-protein kinase BMX (BMX, Homo sapiens, UniProt P51813): remaining binding read 100%.
For Ephrin type-A receptor 5 (EPHA5, Homo sapiens, UniProt P54756): remaining binding read 100%.
It gave 100% for remaining binding (Mast/stem cell growth factor receptor Kit (KIT, Homo sapiens, UniProt P10721, D816V)).
It gave 91% for remaining binding (Myosin light chain kinase, smooth muscle (MYLK, Homo sapiens, UniProt Q15746)).
Protein kinase C delta type (PRKCD, Homo sapiens, UniProt Q05655) — remaining binding: 86%.
The remaining binding was 92% (Receptor-interacting serine/threonine-protein kinase 1 (RIPK1, Homo sapiens, UniProt Q13546)).
For Citron Rho-interacting kinase (CIT, Homo sapiens, UniProt O14578): remaining binding read 91%.
For Ribosomal protein S6 kinase alpha-3, N-terminal kinase domain (RPS6KA3, Homo sapiens, UniProt P51812): remaining binding read 100%.
Cyclin-dependent kinase-like 5 (CDKL5, Homo sapiens, UniProt O76039) — remaining binding: 88%.
For Serine/threonine-protein kinase DCLK3 (DCLK3, Homo sapiens, UniProt Q9C098): remaining binding read 85%.
For Serine/threonine-protein kinase N1 (PKN1, Homo sapiens, UniProt Q16512): remaining binding read 95%.
The remaining binding was 96% (Rho-associated protein kinase 1 (ROCK1, Homo sapiens, UniProt Q13464)).
It gave 100% for remaining binding (Serine/threonine-protein kinase LATS2 (LATS2, Homo sapiens, UniProt Q9NRM7)).
It gave 100% for remaining binding (Dual specificity mitogen-activated protein kinase kinase 7 (MAP2K7, Homo sapiens, UniProt O14733)).
The remaining binding was 100% (Serine/threonine-protein kinase NLK (NLK, Homo sapiens, UniProt Q9UBE8)).
For Activated CDC42 kinase 1 (TNK2, Homo sapiens, UniProt Q07912): remaining binding read 91%.
For Ribosomal protein S6 kinase alpha-4, C-terminal kinase domain (RPS6KA4, Homo sapiens, UniProt O75676): remaining binding read 96%.
The remaining binding was 100% (RAC-alpha serine/threonine-protein kinase (AKT1, Homo sapiens, UniProt P31749)).
The remaining binding was 100% (Serine/threonine-protein kinase Nek11 (NEK11, Homo sapiens, UniProt Q8NG66)).

Excerpt of the above (set 4):
Dual specificity tyrosine-phosphorylation-regulated kinase 1A (DYRK1A, Homo sapiens, UniProt Q13627) — remaining binding: 80%.
For Cytoplasmic tyrosine-protein kinase BMX (BMX, Homo sapiens, UniProt P51813): remaining binding read 100%.
For Ephrin type-A receptor 5 (EPHA5, Homo sapiens, UniProt P54756): remaining binding read 100%.
It gave 100% for remaining binding (Mast/stem cell growth factor receptor Kit (KIT, Homo sapiens, UniProt P10721, D816V)).
It gave 91% for remaining binding (Myosin light chain kinase, smooth muscle (MYLK, Homo sapiens, UniProt Q15746)).
Protein kinase C delta type (PRKCD, Homo sapiens, UniProt Q05655) — remaining binding: 86%.
The remaining binding was 92% (Receptor-interacting serine/threonine-protein kinase 1 (RIPK1, Homo sapiens, UniProt Q13546)).
For Citron Rho-interacting kinase (CIT, Homo sapiens, UniProt O14578): remaining binding read 91%.
For Ribosomal protein S6 kinase alpha-3, N-terminal kinase domain (RPS6KA3, Homo sapiens, UniProt P51812): remaining binding read 100%.
Cyclin-dependent kinase-like 5 (CDKL5, Homo sapiens, UniProt O76039) — remaining binding: 88%.
For Serine/threonine-protein kinase DCLK3 (DCLK3, Homo sapiens, UniProt Q9C098): remaining binding read 85%.
For Serine/threonine-protein kinase N1 (PKN1, Homo sapiens, UniProt Q16512): remaining binding read 95%.
The remaining binding was 96% (Rho-associated protein kinase 1 (ROCK1, Homo sapiens, UniProt Q13464)).
